Assay results gathered from unrelated publications.
Every numbered part comes from another study and shows a few of its results, in no order.

Sample 1 — technique: RNA Bind-n-Seq; molecule type: RNA; medium: in vitro; tested at: 365 nM; relative to: no-protein control; reading: higher = stronger binding; measurement: RBNS enrichment (R)
Target: RNA binding protein fox-1 homolog 2, RRM domain, GST-SBP tag (RBFOX2, Homo sapiens, UniProt O43251-10, residues 100-194)
Notes: natural RNA segment, single round, ends assumed
Construct (chain): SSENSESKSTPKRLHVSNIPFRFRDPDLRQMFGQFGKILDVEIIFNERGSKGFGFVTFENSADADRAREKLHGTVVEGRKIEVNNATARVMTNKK
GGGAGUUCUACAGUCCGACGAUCAGAGUCUAAGAAACACAGCAUGUGAAGAACAUUAGAUUUAUACAUUCCAGAAUCUCUGCUCUCAGAGUAGCUAAGAGAUUCGGUACAGAAGACGUUCUAUGGAGAAGCACUGGAAUUCUCGGGUGCCAA: 3.77
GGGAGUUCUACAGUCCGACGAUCAUGUUUGUAUAAUAGAACAUUAAUCAUUUAUUAUAACUCAGACAAGGUGUAAAUAAAUUCAUAAUUCAAACAGCCAGUAUAUAUGCAUAUAUGGGUGUUACAUUGCAAAAUGGAAUUCUCGGGUGCCAA: 0.785
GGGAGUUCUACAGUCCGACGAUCCAAAUGCUAGCAUGUACUGUAUGGGAGGAUGAUCCAGAUGUUUCAAAGAGAAUUUCUCUUAGUUUAGUUAGGUGUAAUUCAGUAGCUUUAAAUUCUCAGGUCAGAACAUAUGGAAUUCUCGGGUGCCAA: 21.4
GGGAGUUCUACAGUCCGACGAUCCAUAUUCAUAGGGUGUGUAUUUUUUGAGUGUGAGCAUUUAAUUGAAAAUAAGAAAGCUAUGAAGUAAAUGUUAACUUCUCUGUAGCAGCUAAUGCAUAGAGACACUAAAAUGGAAUUCUCGGGUGCCAA: 0.598
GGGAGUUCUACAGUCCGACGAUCUUUCUUGUCACAUGAUUUCUUUUCUUGAUGGAUGAAAAAUAUGAAAGGAAACUUUUAUAUCUGUUGCCUAGUUUUGUACAUGGAUCUCAUUUUACAAGAGAAUCUCUCUGUGGAAUUCUCGGGUGCCAA: 0.292
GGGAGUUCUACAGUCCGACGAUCGCAGUGAGUGGUUCCAUAUGGCUCUGUUCAAACUGAGCACAUUUUGCCUUUUUUCUUUCUUUUCUUGGGGGGAUGGGAUAAAUGGGAUAUUUUUUAAAGAAUAAAUCCCGUGGAAUUCUCGGGUGCCAA: 0.405
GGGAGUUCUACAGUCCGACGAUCUCUGUUAAUGCCUCUGAGUGUCCUACCUCCUUGGAGAUGAGAUAGGGAAGGAGCAGGGAUGAGACUGGCAAUGGUCACAGGGAAAGAUGUGGCCUUUUGUGAUGGUUUUAUGGAAUUCUCGGGUGCCAA: 0.515
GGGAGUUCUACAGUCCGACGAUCGGCAUUUUUAAAGCAUUUCCCAACAGAAGAGCAACUAGCAAUAAAAUCCAGCUUUUGUUUGCCAGCCAAAUAGGGAGAGAUGCUCAAAGAAGCUUCAAGAAAGCACUGGGUGGAAUUCUCGGGUGCCAA: 0.434

Sample 2 — technique: protein-binding microarray; molecule type: double-stranded DNA, one strand shown; medium: in vitro; tested at: 250 nM; notes: 60-bp whole probe; added: salmon DNA 0.4 mg/ml; relative to: random background probes; reading: higher = stronger binding; measurement: log fluorescence; all sequences stand within: GCCTAGCAC … GTCTTGATTCGCTTGACGCTGCTG
Target: Interferon regulatory factor 5, full length, phosphomimetic (IRF5, Homo sapiens, UniProt Q13568-2, residues 1-514, K96S/S451D/S453D/S456D/S462D)
CACGGTATCCTTTTCCTGACGTGCTAG: 0.133 z-score
CCTTTTTTTTTTTTTCTGATGTGCTAG: 0.95 z-score
GACAGACTGGGTTTCGGGACGTGCTAG: 2.68 z-score
GCCTCTAGGTTTTCTGGAGACGTGCTA: -0.185 z-score
CTTCCTCTTTCTCTGCTACCGTGCTAG: 1.34 z-score
TTAGGTACCGGGTATCGGTTAGTGCTA: 3.67 z-score
TTAGAACTGGGTTATCGATTAGTGCTA: 2.15 z-score
GACGGACTGGGTTATCGGGACGTGCTA: -0.146 z-score
TCAAGCAAAAATGATTGACTGTGCTAG: 0.36 z-score
GACGGTCTCCTTCTCCTCACGTGCTAG: -0.163 z-score
TTAGATATCAGTATCCATTAGTGCTAG: 1.59 z-score
GGCGATATCAGACTGGAGACGTGCTAG: 0.073 z-score
GACGATATCAGCCTGGAGACGTGCTAG: 0.338 z-score
TTAGGTCTCGCACTGGGTTAGTGCTAG: -0.135 z-score
TTAGGTCTCGGTCTCAGTTAGTGCTAG: 0.406 z-score
GACGGACTGGGGCCTGGGGACGTGCTA: -0.859 z-score
TTACATATGTTTTTCATTTTGTGCTAG: 1.85 z-score

Sample 3 — technique: RNA Bind-n-Seq; molecule type: RNA; medium: in vitro; tested at: 90 pmol; notes: 4-mer, random 30-nt RNA, single round; added: 3 µM DMDA-PatA, 2 mM ADP, 2 mM phosphate; relative to: input library; reading: higher = stronger binding; measurement: 4-mer enrichment
Target: ATP-dependent RNA helicase DDX3X, helicase core (DDX3X, Homo sapiens, UniProt O00571, residues 132-607)
UniProt O00571, sequence (132-607, looked up): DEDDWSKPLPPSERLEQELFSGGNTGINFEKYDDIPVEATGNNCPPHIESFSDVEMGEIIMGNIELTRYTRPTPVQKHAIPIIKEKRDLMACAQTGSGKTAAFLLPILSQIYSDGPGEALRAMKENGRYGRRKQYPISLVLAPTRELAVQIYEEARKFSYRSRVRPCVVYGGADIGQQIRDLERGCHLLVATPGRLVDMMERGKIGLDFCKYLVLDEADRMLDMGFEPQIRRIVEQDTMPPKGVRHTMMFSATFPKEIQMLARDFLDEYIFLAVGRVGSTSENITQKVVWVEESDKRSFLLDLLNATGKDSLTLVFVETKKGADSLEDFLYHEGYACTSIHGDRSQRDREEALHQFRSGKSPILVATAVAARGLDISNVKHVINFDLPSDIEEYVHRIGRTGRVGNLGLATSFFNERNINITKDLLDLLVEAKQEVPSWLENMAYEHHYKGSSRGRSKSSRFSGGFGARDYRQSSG
GCAU: 0.969 fold
AAAU: 1.12 fold
ACGA: 0.934 fold
GACG: 0.923 fold
CACU: 0.851 fold
UCCA: 0.993 fold
UCUA: 0.849 fold
CAGU: 0.912 fold
UAGU: 0.987 fold
ACAC: 1.01 fold
CGUA: 0.997 fold
GAUA: 0.885 fold
GUUU: 1.13 fold
UGCU: 0.755 fold
AAGC: 0.984 fold

Sample 4 — technique: universal PBM; molecule type: double-stranded DNA, one strand shown; medium: in vitro; tested at: not given; reading: higher = stronger binding; measurement: E-score
Target: Sal-like protein 4, full length isoform B (SALL4, Homo sapiens, UniProt Q9UJQ4-2, residues 1-616)
Notes: 8-mer, flanks averaged, mean of replicates
GGTTCGAA: -0.0442
AAGCCGCC: -0.32
ACTTCCTA: 0.107
AGCGTCCT: -0.087
CACCATGC: -0.256
CATTCCTA: 0.063
TCGTATCA: 0.0865
CACGAGAA: -0.149
CCCGACGA: -0.117
CTATCGCA: -0.0394
ATAAATTC: 0.322
ATTTAGGA: 0.204
CGGAATTC: -0.1
CATGGTAC: 0.0153
GTCATCAA: 0.0164
GAACACTC: -0.0398

Some of these lines once more (sample 4):
AGCGTCCT: -0.087
CACCATGC: -0.256
CATTCCTA: 0.063
TCGTATCA: 0.0865
CACGAGAA: -0.149
